Published values pooled from the literature.
Each numbered part is a random draw from the data of one study; scales do not carry over between parts.

Series 1 — technique: protein-binding microarray; molecule type: double-stranded DNA, one strand shown; sample: in vitro; concentration: 250 nM; setting: 60-bp whole probe; with: salmon DNA 0.4 mg/ml; relative to: random background probes; reading: higher = stronger binding; all sequences stand within: GCCTAGCAC … GTCTTGATTCGCTTGACGCTGCTG
Target: Interferon regulatory factor 5, full length, phosphomimetic (IRF5, Homo sapiens, UniProt Q13568-2, residues 1-514, K96S/S451D/S453D/S456D/S462D)
Oligonucleotide	log fluorescence [z-score]
GACGATAGCAGTCTCGAGACGTGCTAG	0.618
TCATACATGGGTTTTCAGACTGTGCTA	0.357
TTAGATGTCGGGTATCGATTAGTGCTA	2.98
TTAGGACTGCTTTTCATTTAGTGCTAG	0.604
GACGATTTCAGTTCCAAGACGTGCTAG	1.31
GACGATCTCGGTCTCGAGACGTGCTAG	0.0192
GACGGGATCGGGTATCGGGACGTGCTA	0.444
TTAGTACTGAGTTTCGATTAGTGCTAG	8.67
CTTGAACCTGGGAGGTGGAGGTGCTAG	-0.552
GACGGACTGAGACTGGGGACGTGCTAG	-0.651
TTAGATATCGGGTATCGATTCGTGCTA	4.86
GACGGTGTCGGTTTCGGGACGTGCTAG	3.33
CTTCCTTTACTTTCTTTTTTGTGCTAG	2.78
GACGTACTGCTACTGCTGACGTGCTAG	-0.432
TTAGGACTGTTTATCCTTTAGTGCTAG	-0.185
TTAGGTATCGACACTGCGTTAGTGCTA	2.37
TTAGATTTCAGTTTCTATTAGTGCTAG	5.97
GTCGAACTGGGGACTGGAGACGTGCTA	-0.706

Series 2 — technique: RNAcompete; molecule type: RNA; sample: in vitro; concentration: 20 nM; setting: 7-mer, probes averaged, single round; relative to: mean of 7-mers; reading: higher = stronger binding
Target: PABPC1L2, full length, GST fusion (mouse, UniProt A0ABA7IW68)
Target sequence (chain): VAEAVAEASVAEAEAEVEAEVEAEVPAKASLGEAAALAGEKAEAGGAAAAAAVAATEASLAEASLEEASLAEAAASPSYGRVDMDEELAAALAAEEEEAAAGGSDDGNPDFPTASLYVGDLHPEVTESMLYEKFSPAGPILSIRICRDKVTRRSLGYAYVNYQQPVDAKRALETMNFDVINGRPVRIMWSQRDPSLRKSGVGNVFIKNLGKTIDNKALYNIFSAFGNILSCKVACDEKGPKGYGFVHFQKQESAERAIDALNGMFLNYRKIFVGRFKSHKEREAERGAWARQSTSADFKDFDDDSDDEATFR
Oligonucleotide	7-mer Z-score
GCCGAGU	-0.204
AUUUCGC	-0.427
UCAUGAC	-0.113
CUUUUCG	-0.273
AGGGCAG	0.617
GUAAGUC	-0.28
CACUAGA	-0.0663
AAGUUUA	0.0352
AGAAUAU	-0.108
AAGACCU	0.175
AAGUUCG	-0.104
UUUCGAG	-0.267
AGUGGUA	-0.0409
CGCAGAG	-0.0482
CAGGAGC	0.0932
UCGUGCU	-0.271
CAACGAU	0.0279
UGGUCUC	-0.338
UGUUUCU	-0.387

Series 3 — technique: protein binding microarray; molecule type: double-stranded DNA, one strand shown; sample: in vitro; concentration: not given; relative to: not given; reading: higher = stronger binding
Target: Histone acetyltransferase KAT6A, winged helix 2, GST fusion (KAT6A, Homo sapiens, UniProt Q92794, residues 85-181)
Setting: 8-mer, flanks averaged, mean of 2 arrays, mostly near background
Construct (chain): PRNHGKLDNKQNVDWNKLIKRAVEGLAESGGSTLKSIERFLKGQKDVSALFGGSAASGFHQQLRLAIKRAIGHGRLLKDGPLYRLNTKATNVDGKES
Oligonucleotide	E-score
CCAGATAG	-0.027
AAATTGGT	0.0239
AGTCAAGG	-0.114
CGATCGAG	0.239
ATCTGTTA	-0.0571
CGACTTAC	-0.157
CCTCGCCG	0.177
GTGGTATA	-0.139
ACACGCTG	-0.0031
GGCAAACA	-0.00824
ATATACTG	-0.00364
CTAACTTA	-0.00335
AAGTAATT	-0.0158
ACCATGAA	0.0676
CCCATTGC	0.0896
CCTGCCTC	0.148
GATTGAGC	0.114
ACTAGTAT	-0.119
ACAAATTA	0.00018

Series 4 — technique: RNA Bind-n-Seq; molecule type: RNA; sample: in vitro; concentration: 200 nM; setting: whole 134-nt RNA, ends assumed; with: 150 mM LiCl; relative to: input library; reading: higher = stronger binding; all molecules: 7-deaza-guanosine replaces G
Target: Fragile X messenger ribonucleoprotein 1, C-terminal low-complexity region (Fmr1, Mus musculus, UniProt P35922)
Oligonucleotide	log2 enrichment
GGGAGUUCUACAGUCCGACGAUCUCCUCAAGUCCUGUGCUACACAUCGUAUGUACCGAAUCGGGCGGCGGGCGGGAAAGUAUUAUGUUACGCCGUUCGGAUCUGCACUUCCAGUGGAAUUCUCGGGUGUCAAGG	0.751
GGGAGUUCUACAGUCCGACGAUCCUCAAGUCCUGUGCUACACAUCGUAUGUACCGAAUCGGGGAAGGGAAGGAAGGAAAGUAUUAUGUUACGCCGUUCGGAUCUGCACUUCCAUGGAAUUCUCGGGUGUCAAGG	-0.927
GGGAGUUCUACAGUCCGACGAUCGUCCUGUGCUACACAUCGUAUGUACCGAAUCGGGGUGGGGUUUGGGGAAAAAAAGGGGAAAGUAUUAUGUUACGCCGUUCGGAUCUGCACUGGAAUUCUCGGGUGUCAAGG	-0.744
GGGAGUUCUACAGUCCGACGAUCUCAAGUCCUGUGCUACACAUCGUAUGUACCGAAUCGGAAAAAAAGGUUUGGUGGAAAGUAUUAUGUUACGCCGUUCGGAUCUGCACUUCCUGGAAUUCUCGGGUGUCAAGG	-1.74
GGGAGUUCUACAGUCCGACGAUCGUCCUGUGCUACACAUCGUAUGUACCGAAUCGGGAAAAAGGGUUUGGGAAAAAAAGGGAAAGUAUUAUGUUACGCCGUUCGGAUCUGCACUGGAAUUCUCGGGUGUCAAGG	-2.33
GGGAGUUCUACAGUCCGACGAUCCCUCAAGUCCUGUGCUACACAUCGUAUGUACCGAAUCGGGGAGGGAGGAGGGGAAAGUAUUAUGUUACGCCGUUCGGAUCUGCACUUCCAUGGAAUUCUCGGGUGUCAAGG	-0.921
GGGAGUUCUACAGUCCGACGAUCCCUCAAGUCCUGUGCUACACAUCGUAUGUACCGAAUCGGGCGGGGCGGGCGGAAAGUAUUAUGUUACGCCGUUCGGAUCUGCACUUCCAGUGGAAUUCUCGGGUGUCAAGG	-0.481
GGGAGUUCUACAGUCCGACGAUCUCCUGUGCUACACAUCGUAUGUACCGAAUCGGCCCCCCGGCCCCCCGGGGCCCCCCGGGGAAAGUAUUAUGUUACGCCGUUCGGAUCUGCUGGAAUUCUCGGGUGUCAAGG	-0.29
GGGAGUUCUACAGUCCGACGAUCGUCCUGUGCUACACAUCGUAUGUACCGAAUCAAAUUUUUAAACCCAAAUUUUUUUAAAAAAGUAUUAUGUUACGCCGUUCGGAUCUGCACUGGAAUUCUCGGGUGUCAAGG	-2.1
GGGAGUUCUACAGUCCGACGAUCUGCUGAAGCUCACACCCGUGGACCACCCAGACUGCCUGCCGCUACAGGAUGCCCUCCGCAUCUCCCAGGACUUCUUUCCGGCAUCAGUGUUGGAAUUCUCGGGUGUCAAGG	-0.814
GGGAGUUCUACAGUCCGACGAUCACCAUACAGGUGGGCAUCUUUGGGAAGUGGGGCAAGGGGGGGAUAGGGAGGGGGGUAACACUUUGGGAACAGGUGGUCCCAGGUCGUUUCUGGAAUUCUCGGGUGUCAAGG	1.39

Series 5 — technique: RNA Bind-n-Seq; molecule type: RNA; sample: in vitro; concentration: 100 nM; relative to: input RNA pool; reading: higher = stronger binding
Target: RING finger protein unkempt homolog, zinc fingers 1-6, SBP tag (UNK, Homo sapiens, UniProt Q9C0B0, residues 30-357)
Chain of UniProt Q9C0B0 (30-357, looked up): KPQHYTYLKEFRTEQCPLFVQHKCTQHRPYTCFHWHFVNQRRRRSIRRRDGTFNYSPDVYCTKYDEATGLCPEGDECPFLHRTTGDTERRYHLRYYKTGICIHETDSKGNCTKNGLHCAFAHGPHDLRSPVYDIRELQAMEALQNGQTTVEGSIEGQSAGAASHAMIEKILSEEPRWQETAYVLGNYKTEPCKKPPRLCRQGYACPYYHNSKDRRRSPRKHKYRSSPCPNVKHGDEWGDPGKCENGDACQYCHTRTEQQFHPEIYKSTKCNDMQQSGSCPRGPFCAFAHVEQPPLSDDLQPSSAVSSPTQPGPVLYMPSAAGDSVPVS
Setting: RNA with constant flanks, vertebrate orthologous sites, ends assumed
Oligonucleotide	bound/input enrichment
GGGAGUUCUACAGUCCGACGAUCGUUGUGACCCAUUUAACAUACACAAAAAACUAGCCAAAAAAAAUUUGCAUGUAAUUGAUUUAGAUGAUGCCACUUUCCUGAGUGCAAAAUUUGGAAGGCAGCUUGUACCUGGUUGGAAGCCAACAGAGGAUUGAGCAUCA	1.22 ratio
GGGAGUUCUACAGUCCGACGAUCUCCAGUCUUACACUUACAGUUGGCCUCAAAUCUAUUGCAUUUAUGAUAAUGUAUUAUAUCUAGUUGAGUUUAAUAUUUUUUUAUUAGCUUGUAAAUAAAGAUGGCAUCUUCUACAUUAAACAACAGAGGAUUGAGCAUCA	0.588 ratio
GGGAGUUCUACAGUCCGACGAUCUGUUCAGUCCCCUGGGCAGGGACAAGUUUUUUUAAUGUCUUGGAACAAACUCUGUGCUUGUAGGAAACGGCAACUUUUUUUUUCUUUUUCUUUUUUUAAAGCCAAACGUCCACCCACCCUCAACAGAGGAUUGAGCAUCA	1.02 ratio
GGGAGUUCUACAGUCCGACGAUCAAUUGAACAAACACGUUUCCACUGGGUUUUGCCUGUAAGAAAAAAAUGUACCCGAGCACAUAGAGCUUUUUAAUAGCACUAACCAAUGCCUUUUUAGAUGUAUUUUUGAUGUAUAUAUCUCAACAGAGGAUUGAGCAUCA	0.626 ratio
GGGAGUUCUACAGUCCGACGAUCCUGGGAAAUACUCUGGGGAGUGGCUGGACACUUAGCAUUGUUUGAUUUAUGACCUUGACAGUAGAUAGGCUUGUGGGGGUUUUGUUUUUGUUUUUUAAUUUAAUGAUAUUAAAACGUAAUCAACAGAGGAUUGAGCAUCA	1.01 ratio
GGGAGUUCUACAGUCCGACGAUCGUUGUGAUCCUUUUAACAUACACAAAAAGCUUGCAAAGAAAAAUUUGCAUGCAAUUGACUUAGAUGAUGCCACUUUCCUAAGUGCCAAGUUUGGAAGACAGCUUGUACCUGGUUGGAAGCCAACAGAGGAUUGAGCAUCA	0.538 ratio
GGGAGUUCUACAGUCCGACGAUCCUCCCCACCACCAUCUCCUGUUUUUCUCAAGAAGUCCUGCUACCCCUCUUUUAGGCUGAGGUGUACAGAGUAAAACCAAUCGGAGGUUUAUAAUUUGGGGAAAAGUGUUUUUGAUUCUUUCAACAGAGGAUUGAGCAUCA	0.501 ratio
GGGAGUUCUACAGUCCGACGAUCUGCUGUUAAUGCACUGUAUACCAGGAAUUGUCUGAACUUAGUGUAAUCUAGGAGAUUUUAUAGUUUUAUUUUAAUGAAGUAUGAAUUGAAACAAAGCUGUUAGGAGUAUGUAGUCUUCUACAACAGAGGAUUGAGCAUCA	0.944 ratio
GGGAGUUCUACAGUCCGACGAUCGUUGGGUCAUGACCCCUAUAGGUUAGGCCAUGAUGCUUACAGGUUAGGACAGGACCCCUACAGAUUAGGCCAUGAUCCCUACAGACUAACUCCUGAUCCCUACAGGAUGUCACCCAGACCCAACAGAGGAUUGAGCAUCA	0.462 ratio
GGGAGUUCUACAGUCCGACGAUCGUCCUUUUGCUCAGUCCCUGGCCAGGGUGGCAGGGCCAAGGUUUCACCAAGGAACUGCAUUUCAAAAAAAAUUUUUUUUAAUUGUGGUACAGGAAGCAACGUUGCUGAAACAGCCUCUGACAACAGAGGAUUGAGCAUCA	0.663 ratio
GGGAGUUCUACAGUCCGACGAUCUAUUAGGAUCCUACCAGCCUGUUAACCUCUCGUCUGUGCACAGCUUCAAAUGUUACUGUCUAGUUAGAUUUUUAUUUAAAAUAUGAAAAACUGCUUUUCCCAAGACGUUUUUUAAAAAAACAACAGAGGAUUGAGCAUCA	1.16 ratio

Excerpt of the above (series 2):
Oligonucleotide	7-mer Z-score
UGGUCUC	-0.338
UGUUUCU	-0.387
UCGUGCU	-0.271
AAGUUUA	0.0352
CGCAGAG	-0.0482
CACUAGA	-0.0663
AUUUCGC	-0.427
AAGACCU	0.175
GUAAGUC	-0.28
UUUCGAG	-0.267
